Published values gathered from unrelated publications.
Compare with care: the assays were run in different laboratories. “And” joins repeats or separate records; there may be more than shown. ± gives the spread as reported.

`CSCC[C@H](NC(=O)[C@H](CCCNC(=N)N)NC(=O)[C@H](CCCNC(=N)N)NC(=O)[C@H](CCCCN)NC(=O)[C@H](C)NC(=O)[C@H](CCCNC(=N)N)NC(=O)CNC(=O)[C@@H](NC(=O)CCNC(=O)c1ccc2c(c1)C(=O)OC21c2ccc(O)cc2Oc2cc(O)ccc21)[C@@H](C)O)C(=O)N[C@@H](CSCB(O)O)C(=O)N[C@@H](Cc1ccc(O)cc1)C(=O)N[C@@H](CSCB(O)O)C(=O)N[C@@H](CCCNC(=N)N)C(=O)N[C@@H](CCCNC(=N)N)C(N)=O` gave a remaining peptide of 84% and 81.4% and 84.5% (HPLC peak area; 50% human serum; 100 µM, 1 h, pH 7.4, 37 °C; relative to: 0 h).
`CC(C)C[C@@H]1NC(=O)CNC(=O)[C@H](CC(N)=O)NC(=O)[C@H](CCCNC(=N)N)NC(=O)[C@H]([C@@H](C)O)NC(=O)[C@@H]2CSSC[C@@H]3NC(=O)[C@H]([C@@H](C)O)NC(=O)CNC(=O)CNC(=O)[C@H](C(C)C)NC(=O)[C@@H]4CSSC[C@H](NC(=O)[C@H](CCCCN)NC(=O)[C@H](CSSC[C@H](NC(=O)[C@H](C(C)C)NC(=O)[C@@H]5CCCN5C1=O)C(=O)NCC(=O)N[C@@H](CCC(=O)O)C(=O)N[C@@H]([C@@H](C)O)C(=O)N4)NC(=O)CNC(=O)[C@@H]1CCCN1C(=O)[C@H]([C@@H](C)O)NC(=O)[C@H](CC(N)=O)NC3=O)C(=O)N[C@@H](CO)C(=O)N[C@@H](Cc1c[nH]c3ccccc13)C(=O)N1CCC[C@H]1C(=O)N[C@@H](C(C)C)C(=O)N2` gave a remaining peptide of 91 ± 0.9% (HPLC; ammonium bicarbonate; 180 µM, 14 days, pH 9.0, 25 °C, deamidation stability).
For `CC(C)[C@@H]1NC(=O)CNC(=O)[C@H](CC(N)=O)NC(=O)[C@H](CCCNC(=N)N)NC(=O)[C@H](Cc2ccc(O)cc2)NC(=O)[C@H](C(C)C)NC(=O)[C@@H](NC(=O)[C@@H](NC(=O)[C@H](CC(N)=O)NC(=O)[C@H](Cc2c[nH]c3ccccc23)NC(=O)[C@H](C)NC(=O)[C@H](Cc2ccccc2)NC(=O)CN)C(C)C)CSSC[C@@H](C(=O)N[C@@H](Cc2cnc[nH]2)C(=O)N[C@@H](CCCNC(=N)N)C(=O)N[C@@H](CCCNC(=N)N)C(=O)N[C@@H](C)C(=O)N[C@@H](CC(N)=O)C(N)=O)NC(=O)[C@H](C(C)C)NC(=O)[C@H](CCCNC(=N)N)NC1=O`, the remaining peptide was 26.1% and 32.4% and 29.8% (HPLC; mouse mammary gland homogenate; 2560 µM, 16.00 h, 37 °C, 50 mg/mL tissue).
With `NNc1ccccc1` the remaining fraction was 0.23 and 0.28 and 0.24 (PBS; 18 h, 37 °C; relative to: initial amount).
For `CC(C)C[C@@H]1NC(=O)CNC(=O)[C@H](CC(N)=O)NC(=O)[C@H](CCCNC(=N)N)NC(=O)[C@H]([C@@H](C)O)NC(=O)[C@@H]2CSSC[C@@H]3NC(=O)[C@H]([C@@H](C)O)NC(=O)CNC(=O)CNC(=O)[C@H](C(C)C)NC(=O)[C@@H]4CSSC[C@H](NC(=O)[C@H]([C@@H](C)O)NC(=O)[C@H](CSSC[C@H](NC(=O)[C@H](C(C)C)NC(=O)[C@@H]5CCCN5C1=O)C(=O)N[C@@H](CCCCN)C(=O)N[C@@H](CCC(=O)O)C(=O)N[C@@H]([C@@H](C)O)C(=O)N4)NC(=O)CNC(=O)[C@@H]1CCCN1C(=O)[C@H]([C@@H](C)O)NC(=O)[C@H](CC(N)=O)NC3=O)C(=O)N[C@@H](CO)C(=O)N[C@@H](Cc1c[nH]c3ccccc13)C(=O)N1CCC[C@H]1C(=O)N[C@@H](C(C)C)C(=O)N2`, the remaining peptide was 80.1 ± 8.8% (HPLC; ammonium bicarbonate; 180 µM, 14 days, pH 9.0, 25 °C, deamidation stability).
`CC[C@@H](C)[C@@H](NC(=O)[C@@H](Cc1ccc(O)cc1)NC(=O)[C@H]1CCCN1C(=O)[C@@H](CCCNC(=N)N)NC(=O)[C@H](N)Cc1c[nH]cn1)C(=O)N[C@H](C)C(=O)N[C@H](Cc1c[nH]cn1)C(=O)N[C@H](CCCNC(=N)N)C(=O)N[C@@H](C(=O)N[C@H](Cc1ccc(O)cc1)C(=O)N[C@H](CO)C(=O)N[C@H](Cc1ccccc1)C(N)=O)C(C)C` gave a remaining compound of 94.7% and 95.3% and 94.2% (10% human serum; 36 h).
For `CC[C@H](C)[C@H](NC(=O)[C@H](CCCCN)NC(=O)[C@H](CCC(=O)O)NC(=O)[C@H](CCCCN)NC(=O)[C@H](CO)NC(=O)[C@H](CCCCN)NC(=O)[C@H](CCCNC(=N)N)NC(=O)[C@H](Cc1ccccc1)NC(=O)[C@H](Cc1ccccc1)NC(=O)[C@H](CC(=O)O)NC(=O)CNC(=O)[C@H](CC(C)C)NC(=O)[C@@H](N)CC(C)C)C(=O)NCC(=O)N[C@@H](CCCCN)C(=O)N[C@@H](CCC(=O)O)C(=O)N[C@@H](Cc1ccccc1)C(=O)N[C@@H](CCCCN)C(=O)N[C@@H](CCCNC(=N)N)C(=O)N[C@H](C(=O)N[C@H](C(=O)N[C@@H](CCC(N)=O)C(=O)N[C@@H](CCCNC(=N)N)C(=O)N[C@H](C(=O)N[C@@H](CCCCN)C(=O)N[C@@H](CC(=O)O)C(=O)N[C@@H](Cc1ccccc1)C(=O)N[C@@H](CC(C)C)C(=O)N[C@@H](CCCNC(=N)N)C(=O)N[C@@H](CC(N)=O)C(=O)N[C@@H](CC(C)C)C(=O)N[C@H](C(=O)N1CCC[C@H]1C(=O)N[C@@H](CCCNC(=N)N)C(=O)N[C@H](C(=O)N[C@@H](CCC(=O)O)C(=O)N[C@@H](CO)C(=O)O)[C@@H](C)O)C(C)C)[C@@H](C)CC)C(C)C)[C@@H](C)CC`, “remaining intact peptide” read 7.73% and 6.26% and 5.32% (LC-MS; buffer with trypsin; 40 µM, 30 min, pH 7.5, 37 °C; relative to: 0 h).
With `CSCC[C@H](NC(=O)[C@H](CCCCN)NC(=O)[C@H](CCCNC(=N)N)NC(=O)[C@H](CO)NC(=O)[C@H](Cc1c[nH]c2ccccc12)NC(=O)[C@H](CCCNC(=N)N)NC(=O)[C@H](CC(C)C)NC(=O)[C@H](N)Cc1ccccc1)C(=O)N1CCC[C@H]1C(=O)N[C@@H](CS)C(=O)N[C@H](C(=O)N[C@@H](CO)C(N)=O)C(C)C` the remaining activity was 48 ± 6% (12G5 competition, SUP-T1 cells; human plasma; 20 µM, 8 h, 37 °C).
The remaining peptide of `CC(C)C[C@@H]1NC(=O)CNC(=O)[C@H](CC(N)=O)NC(=O)[C@H](CCCNC(=N)N)NC(=O)[C@H]([C@@H](C)O)NC(=O)[C@@H]2CSSC[C@@H]3NC(=O)[C@H]([C@@H](C)O)NC(=O)CNC(=O)CNC(=O)[C@H](C(C)C)NC(=O)[C@@H]4CSSC[C@H](NC(=O)[C@H]([C@@H](C)O)NC(=O)[C@H](CSSC[C@H](NC(=O)[C@H](C(C)C)NC(=O)[C@@H]5CCCN5C1=O)C(=O)NCC(=O)N[C@@H](CCC(=O)O)C(=O)N[C@@H]([C@@H](C)O)C(=O)N4)NC(=O)CNC(=O)[C@H](CCCCN)NC(=O)[C@H]([C@@H](C)O)NC(=O)[C@H](CC(N)=O)NC3=O)C(=O)N[C@@H](CO)C(=O)N[C@@H](Cc1c[nH]c3ccccc13)C(=O)N1CCC[C@H]1C(=O)N[C@@H](C(C)C)C(=O)N2` is reported as 76.8 ± 0.6% (HPLC; ammonium bicarbonate 0.1 M; 180 µM, 7 days, pH 9.0, 37 °C, deamidation stability).
For `CC(C)=CCC[C@](C)(O[C@@H]1O[C@H](CO)[C@@H](O)[C@H](O)[C@H]1O)[C@H]1CC[C@]2(C)[C@@H]1[C@H](O)C[C@@H]1[C@@]3(C)CC[C@H](O)C(C)(C)[C@@H]3CC[C@]12C`, the remaining amount was 98.4 ± 7.8% (rat plasma; 5 ng/mL, 24 h, room temperature).
`CC[C@@H](C)[C@@H](NC(C)=O)C(=O)N[C@@H](CC(C)C)C(=O)N[C@@H](CCCNC(=N)N)C(=O)N[C@@H](Cc1c[nH]c2ccccc12)C(=O)N[C@@H](CO)C(=O)N[C@@H](CCCNC(=N)N)C(=O)N[C@@H](CCCCN)C(=O)N[C@@H](CC(C)C)C(=O)N1CCC[C@H]1C(=O)N[C@@H](CS)C(=O)N[C@H](C(=O)N[C@@H](CO)C(N)=O)C(C)C` has a remaining activity of 60 ± 8% (12G5 competition, SUP-T1 cells; human plasma; concentration not given, 2 h).
With `CC[C@@H](C)[C@@H](NC(=O)[C@@H](Cc1ccc(O)cc1)NC(=O)[C@H]1CCCN1C(=O)[C@@H](CCCNC(=N)N)NC(=O)[C@H](N)Cc1c[nH]cn1)C(=O)N[C@H](C)C(=O)N[C@H](Cc1c[nH]cn1)C(=O)N[C@H](CCCNC(=N)N)C(=O)N[C@H](CCCCNC(=O)c1cccc(S(=O)(=O)F)c1)C(=O)N[C@H](Cc1ccc(O)cc1)C(=O)N[C@H](CO)C(=O)N[C@H](Cc1ccccc1)C(N)=O` the remaining compound was 110% and 111% (10% human serum; 48 h).
For `CSCC[C@H](NC(=O)[C@H](CCCCN)NC(=O)[C@H](CCCNC(=N)N)NC(=O)[C@H](CO)NC(=O)[C@H](Cc1c[nH]c2ccccc12)NC(=O)[C@H](CCCNC(=N)N)NC(=O)[C@H](CC(C)C)NC(=O)[C@@H](CO)NC(C)=O)C(=O)N1CCC[C@H]1C(=O)N[C@@H](CS)C(=O)N[C@H](C(=O)N[C@@H](CO)C(N)=O)C(C)C`, the remaining activity was 52 ± 2% (12G5 competition, SUP-T1 cells; human plasma; 20 µM, 8 h, 37 °C).
With `CC(C)C[C@@H]1NC(=O)CNC(=O)[C@H](CC(N)=O)NC(=O)[C@H](CCCNC(=N)N)NC(=O)[C@H]([C@@H](C)O)NC(=O)[C@@H]2CSSC[C@@H]3NC(=O)[C@H]([C@@H](C)O)NC(=O)CNC(=O)CNC(=O)[C@H](C(C)C)NC(=O)[C@@H]4CSSC[C@H](NC(=O)[C@H]([C@@H](C)O)NC(=O)[C@H](CSSC[C@H](NC(=O)[C@H](C(C)C)NC(=O)[C@@H]5CCCN5C1=O)C(=O)NCC(=O)N[C@@H](CCC(=O)O)C(=O)N[C@@H]([C@@H](C)O)C(=O)N4)NC(=O)CNC(=O)[C@@H]1CCCN1C(=O)[C@H]([C@@H](C)O)NC(=O)[C@H](CC(N)=O)NC3=O)C(=O)N[C@@H](CO)C(=O)N[C@@H](CCCCN)C(=O)N1CCC[C@H]1C(=O)N[C@@H](C(C)C)C(=O)N2` the remaining peptide was 87.7 ± 2.7% (HPLC; ammonium bicarbonate; 180 µM, 14 days, pH 9.0, 25 °C, deamidation stability).
The remaining compound of `C/C(=C\CCP(=O)(OCOC(=O)CC1CCOCC1)Oc1cccc2ccccc12)CO` (stereo not drawn) is reported as 0% (50% CD1 mouse plasma; 100 µM, 2 h, pH 7.5, 37 °C).

A few entries again:
With `CC(C)C[C@@H]1NC(=O)CNC(=O)[C@H](CC(N)=O)NC(=O)[C@H](CCCNC(=N)N)NC(=O)[C@H]([C@@H](C)O)NC(=O)[C@@H]2CSSC[C@@H]3NC(=O)[C@H]([C@@H](C)O)NC(=O)CNC(=O)CNC(=O)[C@H](C(C)C)NC(=O)[C@@H]4CSSC[C@H](NC(=O)[C@H]([C@@H](C)O)NC(=O)[C@H](CSSC[C@H](NC(=O)[C@H](C(C)C)NC(=O)[C@@H]5CCCN5C1=O)C(=O)NCC(=O)N[C@@H](CCC(=O)O)C(=O)N[C@@H]([C@@H](C)O)C(=O)N4)NC(=O)CNC(=O)[C@@H]1CCCN1C(=O)[C@H]([C@@H](C)O)NC(=O)[C@H](CC(N)=O)NC3=O)C(=O)N[C@@H](CO)C(=O)N[C@@H](CCCCN)C(=O)N1CCC[C@H]1C(=O)N[C@@H](C(C)C)C(=O)N2` the remaining peptide was 87.7 ± 2.7% (HPLC; ammonium bicarbonate; 180 µM, 14 days, pH 9.0, 25 °C, deamidation stability).
